{"data": "Assay results collected from several papers", "AKR1C2": "Aldo-keto reductase family 1 member C2 (AKR1C2, Homo sapiens, UniProt P52895)", "ache": "Acetylcholinesterase (ache, Electrophorus electricus, UniProt O42275)", "Tripartite terminase subunit 3 C-terminal nuclease domain": "Tripartite terminase subunit 3, C-terminal nuclease domain (Human betaherpesvirus 5, UniProt P16732)", "USP7": "Ubiquitin carboxyl-terminal hydrolase 7 (USP7, Homo sapiens, UniProt Q93009)", "note": "Each line is one published result; not all experiments were run side by side. Several values in a cell are separate wells, animals, samples, runs or records. ± gives the spread as reported.", "UniProt O42275, sequence (whole entry, looked up)": "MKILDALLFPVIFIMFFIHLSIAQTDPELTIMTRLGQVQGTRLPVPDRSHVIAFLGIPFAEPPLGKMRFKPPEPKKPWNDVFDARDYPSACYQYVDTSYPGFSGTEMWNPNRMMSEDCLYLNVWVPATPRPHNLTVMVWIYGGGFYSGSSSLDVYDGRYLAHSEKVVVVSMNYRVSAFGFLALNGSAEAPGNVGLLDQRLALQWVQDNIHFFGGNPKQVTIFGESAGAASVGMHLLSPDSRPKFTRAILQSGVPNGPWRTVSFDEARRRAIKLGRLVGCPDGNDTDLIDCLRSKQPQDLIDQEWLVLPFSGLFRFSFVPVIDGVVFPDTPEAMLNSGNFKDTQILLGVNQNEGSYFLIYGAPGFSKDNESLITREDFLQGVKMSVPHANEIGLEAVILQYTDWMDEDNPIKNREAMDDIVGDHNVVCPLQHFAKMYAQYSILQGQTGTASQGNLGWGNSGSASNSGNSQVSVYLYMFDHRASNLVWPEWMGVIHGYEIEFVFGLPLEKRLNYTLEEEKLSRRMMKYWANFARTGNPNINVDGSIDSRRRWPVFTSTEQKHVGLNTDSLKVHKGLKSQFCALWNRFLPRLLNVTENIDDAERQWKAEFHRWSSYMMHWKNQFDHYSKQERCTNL", "UniProt P16732, sequence (whole entry, looked up)": "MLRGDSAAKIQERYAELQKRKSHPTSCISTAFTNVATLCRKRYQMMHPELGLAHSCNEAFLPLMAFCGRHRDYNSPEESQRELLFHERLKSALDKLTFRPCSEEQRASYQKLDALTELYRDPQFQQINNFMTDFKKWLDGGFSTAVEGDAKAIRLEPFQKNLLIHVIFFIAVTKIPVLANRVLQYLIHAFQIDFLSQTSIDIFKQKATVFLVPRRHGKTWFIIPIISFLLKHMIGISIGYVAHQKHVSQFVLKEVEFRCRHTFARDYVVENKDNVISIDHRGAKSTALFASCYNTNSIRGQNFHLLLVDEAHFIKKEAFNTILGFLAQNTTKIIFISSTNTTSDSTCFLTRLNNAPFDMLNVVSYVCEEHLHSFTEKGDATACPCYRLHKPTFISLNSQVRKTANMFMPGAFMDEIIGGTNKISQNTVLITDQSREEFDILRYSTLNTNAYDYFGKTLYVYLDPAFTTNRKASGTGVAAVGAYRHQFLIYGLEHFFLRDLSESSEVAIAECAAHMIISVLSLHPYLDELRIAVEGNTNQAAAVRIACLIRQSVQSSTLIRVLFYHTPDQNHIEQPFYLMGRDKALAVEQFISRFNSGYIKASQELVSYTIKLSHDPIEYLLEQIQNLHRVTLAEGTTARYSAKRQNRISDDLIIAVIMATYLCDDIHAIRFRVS", "UniProt P52895, sequence (whole entry, looked up)": "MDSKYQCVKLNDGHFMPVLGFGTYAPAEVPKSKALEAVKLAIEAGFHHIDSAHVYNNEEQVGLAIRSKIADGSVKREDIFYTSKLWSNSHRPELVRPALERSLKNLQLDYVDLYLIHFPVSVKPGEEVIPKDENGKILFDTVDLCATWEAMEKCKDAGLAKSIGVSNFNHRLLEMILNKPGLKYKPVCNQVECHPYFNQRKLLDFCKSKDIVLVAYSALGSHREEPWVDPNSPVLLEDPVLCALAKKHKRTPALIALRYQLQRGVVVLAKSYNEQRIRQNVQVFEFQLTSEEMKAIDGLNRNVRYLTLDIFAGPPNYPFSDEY", "UniProt Q93009, sequence (whole entry, looked up)": "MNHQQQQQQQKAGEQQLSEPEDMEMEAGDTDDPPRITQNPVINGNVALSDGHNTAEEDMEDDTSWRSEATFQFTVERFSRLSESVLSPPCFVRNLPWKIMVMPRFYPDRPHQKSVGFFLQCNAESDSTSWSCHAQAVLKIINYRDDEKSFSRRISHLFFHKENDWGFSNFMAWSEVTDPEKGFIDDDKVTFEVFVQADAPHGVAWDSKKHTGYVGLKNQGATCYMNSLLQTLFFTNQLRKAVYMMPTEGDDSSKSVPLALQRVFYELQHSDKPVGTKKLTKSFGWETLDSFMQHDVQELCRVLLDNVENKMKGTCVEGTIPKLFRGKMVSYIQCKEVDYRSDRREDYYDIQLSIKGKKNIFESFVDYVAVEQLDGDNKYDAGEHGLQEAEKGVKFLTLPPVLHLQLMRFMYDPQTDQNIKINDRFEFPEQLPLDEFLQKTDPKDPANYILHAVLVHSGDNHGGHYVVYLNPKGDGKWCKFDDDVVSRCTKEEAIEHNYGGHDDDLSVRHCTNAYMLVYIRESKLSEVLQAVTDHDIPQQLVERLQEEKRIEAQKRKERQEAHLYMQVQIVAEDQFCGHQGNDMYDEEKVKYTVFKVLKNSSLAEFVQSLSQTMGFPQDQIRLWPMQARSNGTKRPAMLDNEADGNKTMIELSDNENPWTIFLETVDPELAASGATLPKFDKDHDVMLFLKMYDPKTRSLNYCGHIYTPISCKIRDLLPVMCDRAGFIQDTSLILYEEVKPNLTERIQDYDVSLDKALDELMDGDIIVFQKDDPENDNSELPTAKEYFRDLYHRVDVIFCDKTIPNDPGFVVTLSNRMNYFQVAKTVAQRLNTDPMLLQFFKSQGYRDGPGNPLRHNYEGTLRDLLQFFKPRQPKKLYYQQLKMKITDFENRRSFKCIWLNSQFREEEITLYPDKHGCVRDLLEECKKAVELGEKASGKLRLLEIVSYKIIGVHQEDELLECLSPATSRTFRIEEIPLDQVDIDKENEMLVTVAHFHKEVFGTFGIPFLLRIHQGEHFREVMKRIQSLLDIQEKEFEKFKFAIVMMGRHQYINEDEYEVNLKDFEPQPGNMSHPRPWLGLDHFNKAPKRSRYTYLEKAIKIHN", "UniProt P08246, sequence (whole entry, looked up)": "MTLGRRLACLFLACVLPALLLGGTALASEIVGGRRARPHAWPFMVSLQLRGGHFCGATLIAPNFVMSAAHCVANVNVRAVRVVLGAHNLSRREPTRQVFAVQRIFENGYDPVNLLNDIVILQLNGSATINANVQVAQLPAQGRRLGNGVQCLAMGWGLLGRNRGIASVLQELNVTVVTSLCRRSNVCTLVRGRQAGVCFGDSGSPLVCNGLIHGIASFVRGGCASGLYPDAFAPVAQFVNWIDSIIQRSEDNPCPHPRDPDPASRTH", "UniProt O43148, sequence (whole entry, looked up)": "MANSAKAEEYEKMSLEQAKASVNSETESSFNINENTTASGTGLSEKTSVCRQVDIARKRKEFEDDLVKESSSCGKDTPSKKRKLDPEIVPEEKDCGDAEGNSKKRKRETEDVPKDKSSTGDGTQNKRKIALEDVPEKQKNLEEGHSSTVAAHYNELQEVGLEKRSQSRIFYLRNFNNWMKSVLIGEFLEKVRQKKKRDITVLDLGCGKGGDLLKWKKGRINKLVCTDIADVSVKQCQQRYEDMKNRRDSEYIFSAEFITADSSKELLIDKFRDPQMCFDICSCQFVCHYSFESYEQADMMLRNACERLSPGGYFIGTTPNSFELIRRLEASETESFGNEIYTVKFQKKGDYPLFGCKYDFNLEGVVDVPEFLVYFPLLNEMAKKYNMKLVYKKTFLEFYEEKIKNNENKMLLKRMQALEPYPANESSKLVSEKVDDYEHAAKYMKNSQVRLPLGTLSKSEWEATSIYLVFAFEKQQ", "UniProt Q8NER1, sequence (whole entry, looked up)": "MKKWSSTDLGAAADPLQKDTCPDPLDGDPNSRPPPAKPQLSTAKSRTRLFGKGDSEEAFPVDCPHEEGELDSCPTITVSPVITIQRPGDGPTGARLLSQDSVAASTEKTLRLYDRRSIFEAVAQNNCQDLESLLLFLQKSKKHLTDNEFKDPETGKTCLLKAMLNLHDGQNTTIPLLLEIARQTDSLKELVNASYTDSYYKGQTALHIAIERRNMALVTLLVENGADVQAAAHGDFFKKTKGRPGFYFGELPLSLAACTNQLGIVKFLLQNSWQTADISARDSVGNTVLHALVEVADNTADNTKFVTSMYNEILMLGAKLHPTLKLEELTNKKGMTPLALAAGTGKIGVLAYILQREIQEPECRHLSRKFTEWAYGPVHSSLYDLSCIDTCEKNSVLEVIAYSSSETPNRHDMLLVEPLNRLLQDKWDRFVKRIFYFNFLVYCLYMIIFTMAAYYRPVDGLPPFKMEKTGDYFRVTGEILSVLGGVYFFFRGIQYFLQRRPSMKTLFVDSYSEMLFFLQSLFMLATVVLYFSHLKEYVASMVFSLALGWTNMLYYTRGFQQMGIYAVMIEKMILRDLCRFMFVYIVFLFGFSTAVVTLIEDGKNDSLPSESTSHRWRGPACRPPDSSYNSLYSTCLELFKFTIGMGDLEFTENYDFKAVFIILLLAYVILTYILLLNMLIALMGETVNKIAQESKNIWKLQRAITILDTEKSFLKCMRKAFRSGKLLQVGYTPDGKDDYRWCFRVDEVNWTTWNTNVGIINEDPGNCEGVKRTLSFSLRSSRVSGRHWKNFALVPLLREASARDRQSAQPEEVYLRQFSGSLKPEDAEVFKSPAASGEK", "UniProt Q00987, sequence (whole entry, looked up)": "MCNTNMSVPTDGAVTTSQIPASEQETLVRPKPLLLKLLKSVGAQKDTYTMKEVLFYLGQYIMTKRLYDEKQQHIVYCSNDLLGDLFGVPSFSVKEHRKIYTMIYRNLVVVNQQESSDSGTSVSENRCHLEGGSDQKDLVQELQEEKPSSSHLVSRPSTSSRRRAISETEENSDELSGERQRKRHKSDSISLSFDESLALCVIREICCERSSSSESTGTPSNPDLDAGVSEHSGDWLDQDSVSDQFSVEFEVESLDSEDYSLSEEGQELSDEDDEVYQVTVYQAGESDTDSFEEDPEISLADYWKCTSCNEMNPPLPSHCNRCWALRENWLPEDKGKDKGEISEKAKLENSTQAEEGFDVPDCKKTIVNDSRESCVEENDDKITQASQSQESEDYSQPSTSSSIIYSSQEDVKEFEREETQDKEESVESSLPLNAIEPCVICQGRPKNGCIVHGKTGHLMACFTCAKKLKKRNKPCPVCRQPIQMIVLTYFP"}
{"Structure (SMILES)": "Cc1c(C(=O)Nc2cccc(C(F)(F)F)c2)cc(-c2ccccc2)n1CCCN1CCOCC1", "target": "TRPV4 (Homo sapiens, UniProt Q9HBA0, Y591H)", "test": "calcium influx, inhibitor", "system": "HeLa cells transfected", "conditions": "10 nM, with: 30% hypotonicity", "inhibition": "no inhibition"}
{"Structure (SMILES)": "C[C@]12CCC[C@H]1[C@@H]1CCc3c(cc(Br)c(O)c3Br)[C@H]1CC2", "target": "AKR1C2", "test": "enzyme activity, inhibitor, absorbance", "conditions": "100 µM, pH 9", "inhibition": "74.4%"}
{"Structure (SMILES)": "FC(F)(F)c1ccc(Nc2c3c(nc4ccccc24)CCCC3)cc1", "target": "ache", "test": "enzyme activity, inhibitor, Ellman", "conditions": "50 µM", "inhibition": "90.7%"}
{"Structure (SMILES)": "O=C(NCc1cc(Cl)ccc1F)c1cn(Cc2ccc(F)cc2)cc(O)c1=O", "target": "Tripartite terminase subunit 3 C-terminal nuclease domain", "test": "endonuclease activity, inhibitor, ELISA", "conditions": "20 µM", "inhibition": "7%"}
{"Structure (SMILES)": "CCc1ccc(Nc2c(NC3CCN(Cc4ccccc4)CC3)c(=O)c2=O)cc1", "target": "ache", "test": "enzyme activity, inhibitor, Ellman", "conditions": "12.5 µM", "inhibition": "43.2%"}
{"Structure (SMILES)": "CCOC(=O)[C@H]1Cc2c(cc([N+](=O)[O-])cc2[N+](=O)[O-])[C@H](O)[C@]12C(=O)Nc1ccccc12", "target": "MDM2 (Homo sapiens, UniProt Q00987)", "conditions": "1 µM", "inhibition": "47.8%"}
{"Structure (SMILES)": "S=C(NCc1ccccn1)NCc1ccccn1", "target": "AMY2 (Sus scrofa, UniProt P00690)", "test": "enzyme activity, inhibitor", "conditions": "125 µg/mL", "inhibition": "50%"}
{"Structure (SMILES)": "O=C(Cc1ccc(F)cc1)N1CCN(Cc2noc(-c3cccc(Cl)c3)n2)CC1", "target": "SCN9A (Homo sapiens, UniProt Q15858)", "test": "sodium current, whole-cell patch clamp", "system": "HEK293, stable", "conditions": "20 µM", "inhibition": "1 ± 3%"}
{"Structure (SMILES)": "COc1cc(-c2oc3cc(OC)c(OC)c(O)c3c(=O)c2OC)ccc1O", "target": "Neutrophil elastase (ELANE, Homo sapiens, UniProt P08246)", "test": "enzyme activity, inhibitor", "conditions": "10 µM", "inhibition": "20.3 to 27.1%"}
{"Structure (SMILES)": "O=C(NCc1ccc(Cl)cc1Cl)c1cn(Cc2ccc(F)cc2)cc(O)c1=O", "target": "Tripartite terminase subunit 3 C-terminal nuclease domain", "test": "endonuclease activity, inhibitor, ELISA", "conditions": "20 µM", "inhibition": "15%"}
{"Structure (SMILES)": "C=C(C)[C@]12C[C@@H](C)[C@@]34O[C@](Cc5ccccc5)(O[C@@H]1[C@@H]3C=C(COC(=O)Cc1cc(I)c(O)c(OC)c1)C[C@]1(O)C(=O)C(C)=C[C@@H]41)O2", "target": "TRPV1 (Homo sapiens, UniProt Q8NER1)", "test": "acid-evoked calcium influx, antagonist", "system": "HEK293, human", "conditions": "11.25 µM, pH 5", "inhibition": "64.4 ± 11.1%"}
{"Structure (SMILES)": "COc1ccnc(Nc2c3c(nc4cc(C)ccc24)CCCC3)c1", "target": "ache", "test": "enzyme activity, inhibitor, Ellman", "conditions": "100 µM", "inhibition": "> 90%"}
{"Structure (SMILES)": "O=c1c(NCc2ccc(Br)cc2)c(NC2CCN(Cc3ccccc3)CC2)c1=O", "target": "ache", "test": "enzyme activity, inhibitor, Ellman", "conditions": "12.5 µM", "inhibition": "42.9%"}
{"Structure (SMILES)": "Cc1ccc(N2CC3CCC(C2)N3C)cc1C(=O)N[C@H](C)c1cc(-c2cnn(C)c2)nc2ccccc12", "target": "USP7", "test": "enzyme activity", "conditions": "concentration not given", "inhibition": "no inhibition"}
{"Structure (SMILES)": "O=C(O)/C=C/c1ccc(O)cc1", "target": "alpha-glucosidase", "test": "enzyme activity", "conditions": "1000 µg/mL", "inhibition": "74.6% and 79.3%"}
{"Structure (SMILES)": "CC1CCc2nc3ccccc3c(Nc3ccc4ccccc4n3)c2C1 (stereo not shown)", "target": "ache", "test": "enzyme activity, inhibitor, Ellman", "conditions": "100 µM", "inhibition": "38.9%"}
{"Structure (SMILES)": "C[C@@]12CC[C@H]3[C@@H](CCC4=CC(=O)C=C[C@@]43F)[C@@H]1CCC2=O", "target": "AKR1C2", "test": "enzyme activity, inhibitor, absorbance", "conditions": "10 µM, pH 9", "inhibition": "10.5%"}
{"Structure (SMILES)": "COC(=O)N(C)[C@@H](Cc1ccccc1)C(=O)N[C@@H](Cc1ccccc1)C(=O)N[C@@H](Cc1ccc(O)cc1)C(=O)N[C@@H](CCCNC(=N)N)C(=O)N[C@@H](CC(C)C)C(=O)N[C@@H](CCCNC(=N)N)C(=O)N[C@@H](CCCNC(=N)N)C(=O)N[C@H](C)C(=O)N[C@@H](CCCNC(=N)N)C(=O)N1CCC[C@H]1C(=O)N[C@@H](CCCCN)C(N)=O", "target": "Oprk1 (Rattus norvegicus, UniProt P34975)", "test": "adenylyl cyclase activity, agonist", "system": "CHO cells", "conditions": "10 µM", "how to read": "relative to: dynorphin A(1-13) amide", "inhibition": "> 40%"}
{"Structure (SMILES)": "COc1ccnc(Nc2c3c(nc4ccccc24)CCCC3)c1", "target": "ache", "conditions": "100 µM", "inhibition": "96.2 ± 4.11%"}
{"Structure (SMILES)": "CCn1ccc(-c2cc(-c3cnn(C)c3)cc([C@@H](C)NC(=O)c3cc(OCCN(C)C)ccc3C)c2)n1", "target": "USP7", "test": "Ub-AMC hydrolysis", "conditions": "up to 40 µM", "inhibition": "no inhibition"}
{"Structure (SMILES)": "O=C(NC1CCN(c2ncnc3[nH]cnc23)CC1)c1cccc(NS(=O)(=O)c2ccc(C(F)(F)F)cc2)c1", "target": "RNMT (Homo sapiens, UniProt O43148)", "test": "enzyme activity, inhibitor", "conditions": "concentration not given", "inhibition": "inactive"}
{"Structure (SMILES)": "O=C(NCc1cccc2[nH]cc(C(=O)C(F)(F)F)c12)c1cn(Cc2ccc(F)cc2)cc(O)c1=O", "target": "Tripartite terminase subunit 3 C-terminal nuclease domain", "test": "endonuclease activity, inhibitor, ELISA", "conditions": "20 µM", "inhibition": "14%"}
{"Structure (SMILES)": "Cc1cccnc1Nc1c2c(nc3ccccc13)CCC(C)C2 (stereo not shown)", "target": "ache", "test": "enzyme activity, inhibitor, Ellman", "conditions": "100 µM", "inhibition": "> 90%"}
{"Structure (SMILES)": "O=c1c(Nc2ccc(Br)cc2)c(NC2CCN(Cc3ccccc3)CC2)c1=O", "target": "ache", "test": "enzyme activity, inhibitor, Ellman", "conditions": "25 µM", "inhibition": "42.9%"}
{"Structure (SMILES)": "Cc1cccnc1Nc1c2c(nc3ccccc13)CCCC2", "target": "ache", "test": "enzyme activity, inhibitor, Ellman", "conditions": "100 µM", "inhibition": "65.7%"}
{"Structure (SMILES)": "CN(C(=N)Nc1ccc(Br)c2ccccc12)c1cccc(C(F)(F)F)c1", "target": "NMDA receptor PCP site, rat", "test": "binding, inhibitor", "system": "brain membranes", "conditions": "1.0 µM, with: [3H]TCP", "inhibition": "-2.6%"}
{"Structure (SMILES)": "CC(=O)NC(Cc1ccc(Br)c(Cl)c1)C(=O)N[C@@H](C)C(=O)N1CCC[C@H]1C(=O)N1CCC[C@H]1C(=O)N[C@@H](CCC(=O)O)C(=O)N[C@@H](Cc1c[nH]cn1)C(=O)N[C@@H](CO)C(=O)N[C@H](C(=O)N[C@@H](C)C(N)=O)[C@@H](C)OP(=O)(O)O (stereo partly shown)", "target": "CHEK1 (Homo sapiens, UniProt O14757)", "test": "enzyme activity, inhibitor", "conditions": "10 µM", "inhibition": "4.73%"}
{"Structure (SMILES)": "C[C@@](O)(C(F)F)[C@H](NC(=O)c1ccc(C#CC#CC2CC2)cc1)C(=O)NO", "target": "Collagenase 3 (MMP13, Homo sapiens, UniProt P45452)", "test": "enzyme activity, inhibitor", "conditions": "30 µM", "inhibition": "≤ 30%"}
{"Structure (SMILES)": "C[C@]12CC[C@@H]3c4cc(Cl)c(O)c(Cl)c4CC[C@H]3[C@@H]1CCC2=O", "target": "AKR1C2", "test": "enzyme activity, inhibitor, absorbance", "conditions": "100 µM, pH 9", "inhibition": "50%"}
{"Structure (SMILES)": "Cc1ccc2c(Nc3ccc4ccccc4n3)c3c(nc2c1)CCCC3", "target": "ache", "test": "enzyme activity, inhibitor, Ellman", "conditions": "100 µM", "inhibition": "44.1%"}
{"Structure (SMILES)": "NCC(CCC(N)C(=O)O)CC1OC(n2cnc3c(N)ncnc32)C(O)C1O (stereo not shown)", "target": "PRMT5 (Homo sapiens, UniProt O14744)", "test": "enzyme activity, inhibitor", "conditions": "20 µM", "inhibition": "> 50%"}
{"Structure (SMILES)": "CC(C)CC(O)(CC(C)C)c1cn(C(=O)N2CCCC2)nn1", "target": "Abhd6 (Mus musculus, UniProt Q8R2Y0)", "test": "enzyme activity", "system": "mouse, brain", "conditions": "i.p., 0.8 mg/kg, apparent, not considered true", "inhibition": "50 to 60%"}
{"Structure (SMILES)": "Clc1ccc2nc3c(c(Nc4ccc5ccccc5n4)c2c1)CCCC3", "target": "ache", "conditions": "100 µM", "inhibition": "89.9 ± 2%"}
{"Structure (SMILES)": "C[C@@]12CC[C@@H]3c4ccc(O)c(Cl)c4CC[C@H]3[C@@H]1CCC2=O", "target": "AKR1C2", "test": "enzyme activity, inhibitor, absorbance", "conditions": "100 µM", "inhibition": "80%"}
{"note": "Repeated from above:"}
{"Structure (SMILES)": "FC(F)(F)c1ccc(Nc2c3c(nc4ccccc24)CCCC3)cc1", "target": "ache", "test": "enzyme activity, inhibitor, Ellman", "conditions": "50 µM", "inhibition": "90.7%"}
{"Structure (SMILES)": "CCn1ccc(-c2cc(-c3cnn(C)c3)cc([C@@H](C)NC(=O)c3cc(OCCN(C)C)ccc3C)c2)n1", "target": "USP7", "test": "Ub-AMC hydrolysis", "conditions": "up to 40 µM", "inhibition": "no inhibition"}
{"Structure (SMILES)": "CC(C)CC(O)(CC(C)C)c1cn(C(=O)N2CCCC2)nn1", "target": "Abhd6 (Mus musculus, UniProt Q8R2Y0)", "test": "enzyme activity", "system": "mouse, brain", "conditions": "i.p., 0.8 mg/kg, apparent, not considered true", "inhibition": "50 to 60%"}
{"Structure (SMILES)": "COc1cc(-c2oc3cc(OC)c(OC)c(O)c3c(=O)c2OC)ccc1O", "target": "Neutrophil elastase (ELANE, Homo sapiens, UniProt P08246)", "test": "enzyme activity, inhibitor", "conditions": "10 µM", "inhibition": "20.3 to 27.1%"}
{"Structure (SMILES)": "CN(C(=N)Nc1ccc(Br)c2ccccc12)c1cccc(C(F)(F)F)c1", "target": "NMDA receptor PCP site, rat", "test": "binding, inhibitor", "system": "brain membranes", "conditions": "1.0 µM, with: [3H]TCP", "inhibition": "-2.6%"}
